# Results from different studies.
# Each numbered part is a random draw from the data of one study; scales do not carry over between parts. Substitutions count along the parent as printed.

# Series 1
# Target: TAR DNA-binding protein 43, full length, His tag (TARDBP, Homo sapiens, UniProt Q13148, residues 1-414)
# Method: RNA Bind-n-Seq
# Molecule type: RNA
# Medium: in vitro
# Concentration: 20 nM
# Setting: 6-mer, flanks averaged, single round
# Added: 150 mM LiCl
# Baseline: input library
# Direction: higher = stronger binding
Oligonucleotide,6-mer enrichment (R)
AGCAAU,0.869
AUGAGC,0.944
ACCGGC,0.882
GUGAAC,0.992
CUCGGU,0.884
GCACUA,0.869
GGACUC,0.974
UGAUGA,1.01

# Series 2
# Target: ATF2, bZIP domain (human)
# Method: DHFR protein complementation
# Medium: yeast
# Setting: single substitutions, most at no-binding floor
# Baseline: wild-type JUN-FOS pair
# Direction: higher = stronger binding
# Parent: JUN, bZIP domain (human); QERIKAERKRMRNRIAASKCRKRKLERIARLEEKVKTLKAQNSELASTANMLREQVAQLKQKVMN; partner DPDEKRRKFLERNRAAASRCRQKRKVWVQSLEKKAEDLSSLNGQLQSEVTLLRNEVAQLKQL
Substitution,binding fitness [natural log]
L31E,-1.57
V56P,-1.52
E33C,-1.41
T48R,-1.32
E44D,-1.14
N42M,-1.49
S43T,-1.3
E54C,-1.41

# Series 3
# Target: PABPC1L2, full length, GST fusion (mouse, UniProt A0ABA7IW68)
# Method: RNAcompete
# Molecule type: RNA
# Medium: in vitro
# Concentration: 20 nM
# Setting: 7-mer, probes averaged, single round
# Baseline: mean of 7-mers
# Direction: higher = stronger binding
Oligonucleotide,7-mer Z-score
ACGUGCU,-0.0355
UCACUUU,-0.307
ACGGACC,0.0189
AAAAUUC,4.17
CCUCCCC,-0.44
GAAUAAC,-0.0228
UAUACCU,-0.311
GCAUCAA,-0.0736

# Mixed results
SMILES,target,assay,setting,endpoint,value
COc1ccc2c(c1)O[C@@H](c1ccc(OC)c(OC)c1)C[C@H]2NC(=O)C1(c2ccc3c(c2)OC(F)(F)O3)CC1,"Epidermal growth factor receptor (EGFR, Homo sapiens, UniProt P00533, L858R/T790M)","cell-free assay, competition with immobilised ligand",1 µM,remaining binding,100%

# Some of these lines once more (series 2):
Substitution,binding fitness [natural log]
L31E,-1.57
T48R,-1.32
